Assay results from different studies.
± gives the spread as reported.
Cell line: MCF7

COC(=O)C1CN1S(=O)(=O)c1c(C)cc(C)cc1C (centres unmarked)  IC50 (cell growth or viability, MTT; 48 h): 49 µM
CC(C)[C@H](NC(=O)[C@H](CCCNC(=N)N)NC(=O)[C@H](CCC(=O)O)NC(=O)[C@H](CCCNC(=N)N)NC(=O)[C@@H](NC(=O)[C@H](CCCNC(=N)N)NC(=O)[C@@H](NC(=O)[C@@H]1CCCN1C(=O)[C@H]1CCCN1C(=O)[C@@H](NC(=O)[C@H](CCCNC(=N)N)NC(=O)[C@@H](NC(=O)[C@H](CCCNC(=N)N)NC(=O)[C@@H](NC(=O)[C@H](CCCNC(=N)N)NC(=O)[C@@H](NC(=O)[C@@H](N)CCCCN)C(C)C)C(C)C)C(C)C)C(C)C)[C@@H](C)O)C(C)C)C(=O)N[C@@H](CCCCN)C(N)=O  IC50: > 1000 µM
Cc1cc(C)c(-n2ccn(-c3c(C)cc(C)cc3C)c2=[Se])c(C)c1.[Cl][Au]  IC50 (cell growth or viability, MTT; 72 h): 0.6 µM
CC(C)[C@H](NC(=O)[C@H](C(C)C)N(C)C)C(=O)N(C)[C@H](C(=O)N1CCC[C@H]1C(=O)N1CCC[C@H]1C(=O)NCc1ccccc1)C(C)C  IC50 (cell growth or viability; 48 h): 0.00044 µM
CC(=O)O[C@H]1C[C@H](O[C@H]2[C@@H](O)C[C@H](O[C@H]3[C@@H](O)C[C@H](O[C@H]4CC[C@@]5(C)[C@H](CC[C@@H]6[C@@H]5CC[C@]5(C)[C@@H](C7=CC(=O)OC7)[C@@H](O)C[C@]65O)C4)O[C@@H]3C)O[C@@H]2C)O[C@H](C)[C@H]1O[C@@H]1O[C@H](CO)[C@@H](O)[C@H](O)[C@H]1O  IC50 (cell growth or viability, MTT; 48 h): 0.44 µM
CC(C)C[C@H](NC(=O)[C@H](CC(C)C)NC(=O)[C@H](CC(=O)O)NC(=O)[C@H](CCCCN)NC(=O)[C@H](Cc1ccccc1)NC(=O)CN)C(=O)N[C@@H](CCCCN)C(=O)N[C@H]1CSCc2ccccc2CSC[C@@H](C(=O)N[C@@H](CC(C)C)C(=O)N[C@H](C(=O)N[C@@H](CCCCN)C(=O)N[C@H](C(=O)N[C@H](C(=O)N[C@@H](CC(C)C)C(=O)N[C@@H](Cc2ccccc2)C(N)=O)C(C)C)[C@@H](C)O)C(C)C)NC(=O)[C@H](CCCCN)NC(=O)[C@H](C)NC(=O)[C@H](C)NC1=O  IC50 (cell growth or viability, CCK-8): 3.79 µM
COc1cc(C(c2c(C)nn(-c3ccccc3)c2O)c2c(C)nn(-c3ccccc3)c2O)cc(OC)c1OC  IC50 (cell growth or viability, MTT; 48 h): 5.45 µM
C[C@]12CC[C@@H]3c4ccc(OS(=O)(=O)F)cc4CC[C@H]3[C@@H]1CCC2=O  IC50 (cell growth; 72 h): 28.7 µM
C[C@@H](N)[C@H](O)CCCCCCCC(=O)CCCCCCCCCCCCCC[C@@H](O[C@@H]1O[C@H](CO)[C@@H](O)[C@H](O)[C@H]1O)[C@@H](N)CO  IC50 (cell growth or viability, resazurin; 96 h): 5.77 µM
[Cl][Ag].[Se]=c1n(C2CCCCC2)ccn1C1CCCCC1  IC50 (cell growth or viability, MTT; 72 h): 1.3 µM
C1CCN(C2CCNCC2)CC1.CCCC(CCC)C(=O)[O][Pt]([OH])([Cl])[Cl].CCCCN  IC50 (cytotoxicity; 72 h): 8.8 ± 1.48 µM
Cc1nn(-c2ccccc2)c(O)c1C(c1ccc([N+](=O)[O-])cc1)c1c(C)nn(-c2ccccc2)c1O  IC50 (cell growth or viability, MTT; 48 h): 35.6 µM
CC[C@H](C)[C@@H]1NC(=O)[C@H](CCCCN)NC(=O)[C@H](CCCCN)NC(=O)[C@H](C)NC(=O)[C@H](C(C)C)NC(=O)[C@H](C)NC(=O)[C@H](CC(C)C)NC(=O)[C@H](CC(C)C)NC(=O)[C@H](C)NC(=O)[C@H](CCCCN)NC(=O)[C@H](CC(C)C)NC(=O)[C@H](CC(N)=O)NC(=O)[C@H](CC(C)C)NC(=O)[C@@H](N)CSSC[C@@H](C(N)=O)NC(=O)[C@H](CC(C)C)NC1=O  IC50 (cell growth or viability, MTT): 13.7 µM
C=CC[P](c1ccccc1)(c1ccccc1)[Pt]([S]c1ncccn1)([S]c1ncccn1)[P](CC=C)(c1ccccc1)c1ccccc1  IC50 (cell growth or viability, MTT): 15.6 µM
C[C@H]1O[C@@H](O[C@H]2[C@@H](O)C[C@H](O[C@H]3[C@@H](O)C[C@H](O[C@H]4CC[C@@]5(C)[C@H](CC[C@@H]6[C@@H]5C[C@@H](O)[C@]5(C)[C@@H](C7=CC(=O)OC7)[C@@H](O)C[C@]65O)C4)O[C@@H]3C)O[C@@H]2C)C[C@H](O)[C@@H]1O  IC50 (cell growth or viability, MTT; 48 h): 0.67 µM
CC1(C)OC2C(COP(=O)(O)O)OC(n3cnc4c(=O)[nH]c(NC(=O)c5ccccc5)nc43)C2O1 (centres unmarked)  IC50 (cell growth or viability): 6.27 µM
COC(=O)C1CN1S(=O)(=O)c1ccc(C)cc1 (centres unmarked)  IC50 (cell growth or viability, MTT; 48 h): 30 µM
O=C1CC2(C1)C(=O)[O][Pt]1([Cl])([O]C(=O)C(Cl)Cl)([NH][C@@H]3CCCC[C@H]3[NH]1)[O]C2=O  IC50 (cell growth or viability, MTT): 7.96 µM
Cc1nn(-c2ccccc2)c(O)c1C(c1ccccc1O)c1c(C)nn(-c2ccccc2)c1O  IC50 (cell growth or viability, MTT; 48 h): 30.2 µM
Cc1cc(C)n(C(C(=O)OC(C)C)n2nc(C)cc2C)n1.F[P-](F)(F)(F)(F)F.[Cu+].c1ccc(P(c2ccccc2)c2ccccc2)cc1  IC50 (cell growth or viability, MTT; 72 h): 7.2 µM
CO[C@@H]1[C@@H](O)[C@H](O[C@H]2CC[C@@]3(C)[C@H](CC[C@@H]4[C@@H]3CC[C@]3(C)[C@@H](C5=CC(=O)OC5)[C@@H](O)C[C@]43O)C2)O[C@H](C)[C@@H]1O[C@@H]1O[C@H](CO)[C@@H](O)[C@H](O)[C@H]1O  IC50 (cell growth or viability, MTT; 48 h): 1.38 µM
COc1ccc(C(c2c(C)nn(-c3ccccc3)c2O)c2c(C)nn(-c3ccccc3)c2O)cc1  IC50 (cell growth or viability, MTT; 48 h): 12.5 µM
CN(C)CC1C(=O)OC2C1CCC1(C)CC1CCC1(C)OC21 (centres unmarked)  IC50 (cell growth or viability, resazurin): 16.9 µM
CC[C@H](C)[C@H](NC(=O)[C@@H](N)Cc1ccc(O)cc1)C(=O)N[C@@H](Cc1ccccc1)C(=O)N[C@@H](CC(N)=O)C(=O)N[C@@H](CC(C)C)C(=O)O  IC50 (cell proliferation, tetrazolium): 0.00015 µM
CCOc1cccc2c1[O][Pt-2]1([Cl])[N+](=C2)Cc2cccc[n+]21 (centres unmarked)  IC50 (cell growth or viability, MTT): 13.3 µM
CC[C@H](C)[C@@H]([C@@H](CC(=O)N1CCC[C@H]1[C@H](OC)[C@@H](C)C(=O)N[C@H](C)[C@@H](O)c1ccccc1)OC)N(C)C(=O)[C@@H](NC(=O)[C@H](C(C)C)N(C)C(=O)OCc1ccc(NC(=O)[C@H](CCCNC(N)=O)NC(=O)[C@@H](NC(=O)CCCc2cn(CC(=O)N[C@@H](CCCCNC(=O)CC[C@H](NC(=O)c3ccc(NCc4cnc5nc(N)[nH]c(=O)c5n4)cc3)C(=O)O)C(=O)NCCCC[C@H]3NC(=O)[C@H](CCCCN)NC(=O)[C@H](CCCNC(N)=O)NC(=O)[C@H](Cc4ccc(O)cc4)NC(=O)[C@@H](NC(=O)[C@H](Cc4ccc5ccccc5c4)NC(=O)[C@H](CCCNC(=N)N)NC(=O)[C@@H](N)CCCNC(=N)N)CSSC[C@@H](C(=O)N[C@@H](CCCNC(=N)N)C(N)=O)NC(=O)[C@H](CCCNC(N)=O)NC(=O)[C@H](CCCNC(=N)N)NC(=O)[C@H](Cc4ccc(O)cc4)NC(=O)[C@@H]4CCCN4C3=O)nn2)C(C)C)cc1)C(C)C  IC50 (cell growth or viability, CCK-8; 48 h): 2.01 µM
CC(=O)c1nn(-c2ccc([N+](=O)[O-])cc2)c2nc3nc(-c4ccccc4)cc(-c4ccc5ccccc5n4)c3c(=O)n12  IC50 (cell growth or viability, MTT; 48 h): 12.3 µM
C=CC[P](c1ccccc1)(c1ccccc1)[Pt]([S]c1nc2ccccc2[nH]1)([S]c1nc2ccccc2[nH]1)[P](CC=C)(c1ccccc1)c1ccccc1  IC50 (cell growth or viability, MTT): 17.4 µM
CC(C)C[C@H](NC(=O)[C@H](C)NC(=O)[C@H](CCCCN)NC(=O)[C@H](C)NC(=O)[C@H](C)NC(=O)[C@@H]1CSCc2cccc(c2)CSC[C@H](NC(=O)[C@H](CCCCN)NC(=O)[C@H](Cc2ccccc2)NC(=O)CN)C(=O)N[C@@H](CC(C)C)C(=O)N[C@@H](CC(C)C)C(=O)N[C@@H](CCCCN)C(=O)N1)C(=O)N[C@H](C(=O)N[C@@H](CCCCN)C(=O)N[C@H](C(=O)N[C@H](C(=O)N[C@@H](CC(C)C)C(=O)N[C@@H](Cc1ccccc1)C(N)=O)C(C)C)[C@@H](C)O)C(C)C  IC50 (cell growth or viability, CCK-8): 22.9 µM

Repeated from above:
CC(C)[C@H](NC(=O)[C@H](CCCNC(=N)N)NC(=O)[C@H](CCC(=O)O)NC(=O)[C@H](CCCNC(=N)N)NC(=O)[C@@H](NC(=O)[C@H](CCCNC(=N)N)NC(=O)[C@@H](NC(=O)[C@@H]1CCCN1C(=O)[C@H]1CCCN1C(=O)[C@@H](NC(=O)[C@H](CCCNC(=N)N)NC(=O)[C@@H](NC(=O)[C@H](CCCNC(=N)N)NC(=O)[C@@H](NC(=O)[C@H](CCCNC(=N)N)NC(=O)[C@@H](NC(=O)[C@@H](N)CCCCN)C(C)C)C(C)C)C(C)C)C(C)C)[C@@H](C)O)C(C)C)C(=O)N[C@@H](CCCCN)C(N)=O  IC50: > 1000 µM
Cc1cc(C)c(-n2ccn(-c3c(C)cc(C)cc3C)c2=[Se])c(C)c1.[Cl][Au]  IC50 (cell growth or viability, MTT; 72 h): 0.6 µM
CC(C)[C@H](NC(=O)[C@H](C(C)C)N(C)C)C(=O)N(C)[C@H](C(=O)N1CCC[C@H]1C(=O)N1CCC[C@H]1C(=O)NCc1ccccc1)C(C)C  IC50 (cell growth or viability; 48 h): 0.00044 µM
